Assay results from different studies.
A part holds a random share of what one study measured.
UniProt Q14164, sequence (whole entry, looked up): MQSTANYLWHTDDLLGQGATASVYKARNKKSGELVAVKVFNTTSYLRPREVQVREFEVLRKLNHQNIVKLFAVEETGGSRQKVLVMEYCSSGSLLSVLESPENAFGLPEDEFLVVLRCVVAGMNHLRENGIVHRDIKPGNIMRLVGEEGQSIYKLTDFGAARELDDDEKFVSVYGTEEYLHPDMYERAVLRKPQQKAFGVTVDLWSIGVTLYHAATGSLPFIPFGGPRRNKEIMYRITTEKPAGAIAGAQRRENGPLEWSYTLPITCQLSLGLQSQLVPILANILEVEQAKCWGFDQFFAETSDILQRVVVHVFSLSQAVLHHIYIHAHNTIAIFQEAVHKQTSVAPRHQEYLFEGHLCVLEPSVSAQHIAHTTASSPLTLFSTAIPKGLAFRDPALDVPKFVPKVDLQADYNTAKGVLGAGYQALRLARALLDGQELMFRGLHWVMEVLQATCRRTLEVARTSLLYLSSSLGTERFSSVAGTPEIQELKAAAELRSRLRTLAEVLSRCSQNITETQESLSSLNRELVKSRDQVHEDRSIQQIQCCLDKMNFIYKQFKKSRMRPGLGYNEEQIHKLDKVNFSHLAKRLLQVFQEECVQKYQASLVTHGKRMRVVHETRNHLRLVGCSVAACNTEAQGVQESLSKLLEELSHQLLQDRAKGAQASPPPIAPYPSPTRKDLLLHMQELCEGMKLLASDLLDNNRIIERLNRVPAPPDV

Series 1
Target: Prothrombin, mature alpha-thrombin (F2, Homo sapiens, UniProt P00734)
Technique: aptamer microarray, sandwich
Molecule type: DNA with 2'F-ANA
Medium: in vitro
Tested at: 200 nM
Notes: whole 15-mer aptamer, many near background
Together with: Cy3 exosite-II aptamer, 400 nM
Direction: higher = stronger binding
Measurement: mean fluorescence intensity
Oligonucleotide: GGTTGGTGTGGTTGG
2'F-ANA at 3 4 6 9 11 13 14: 223 a.u.
2'F-ANA at 1 3 4 7 11 15: 193 a.u.
2'F-ANA at 2 4 5 6 9: 89.2 a.u.
2'F-ANA at 2 5 6 9 11 12 13: 81 a.u.
2'F-ANA at 7 9 10 11 15: 345 a.u.
2'F-ANA at 1 5 6 8 9 10 11 12 14: 48 a.u.
2'F-ANA at 1 4 11 12: 229 a.u.
2'F-ANA at 1 4 5 6 7 9 14 15: 67.5 a.u.

Series 2
Target: TAR DNA-binding protein 43, full length, His tag (TARDBP, Homo sapiens, UniProt Q13148, residues 1-414)
Technique: RNA Bind-n-Seq
Molecule type: RNA
Medium: in vitro
Tested at: 20 nM
Notes: 6-mer, flanks averaged, single round
Together with: 150 mM KCl
Reference: input library
Direction: higher = stronger binding
Measurement: 6-mer enrichment (R)
CGAUAA: 0.63
GAGGAC: 1.47
CCCGAU: 0.634
GCACCG: 0.972
ACCGGA: 0.889
GAUGCG: 1.56
GGCGUC: 1.42
UCACGU: 0.626

Series 3
Target: RNA binding protein fox-1 homolog 2, RRM domain, GST-SBP tag (RBFOX2, Homo sapiens, UniProt O43251-10, residues 100-194)
Technique: RNA Bind-n-Seq
Molecule type: RNA
Medium: in vitro
Tested at: 365 nM
Notes: natural RNA segment, single round, ends assumed
Reference: no-protein control
Direction: higher = stronger binding
Measurement: RBNS enrichment (R)
Construct (chain): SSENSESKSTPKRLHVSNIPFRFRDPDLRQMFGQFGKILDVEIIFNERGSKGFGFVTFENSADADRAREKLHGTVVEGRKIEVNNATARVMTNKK
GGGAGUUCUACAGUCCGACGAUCCUGGUGAUUCUCCAUGCCUGUCCUUACCCCGGAUCUGGCUAUUCCCGUGAUGCCAUUUGGAGGGGAGAGGUCUGCUUCCCACUGUGACCAGGCUAUGGGAUCCUUGGCCAUGGAAUUCUCGGGUGCCAA: 0.834
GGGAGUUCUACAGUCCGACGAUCGCGUCCCCUUCCUCGGGUGAGCCUGGCCUGUCCCGUUCAGCCGUUGGGCCCAGGCUUCCUCCCCUCCAAGGUGAAACACUGCAGUCCCGGUGUGGUGGCUCCCCAUGCAGUGGAAUUCUCGGGUGCCAA: 0.328
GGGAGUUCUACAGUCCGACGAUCUUAGCAGACUCUUUGUGGACGAGUGAAUUUCACAAACAGCACAAUUUCAGAAGAAAUCGAGGGCACAGGCCCUCACUUUUCUUCUUUUGACGCAUCAUCCUGUGAUGUUGUGGAAUUCUCGGGUGCCAA: 0.547
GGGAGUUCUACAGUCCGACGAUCUGUAUACACUGCUUGCAUAAACUCAACCAGCUGCCUUUUUAAAGGGAGCUCUAGUCCUUUUUGUGUAAUUCACUUUAUUUAUUUUAUUACAAACUUCAAGAUUAUUUAAGUGGAAUUCUCGGGUGCCAA: 0.556
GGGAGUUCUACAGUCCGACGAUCUUCAUGAUCAGUAGGAAGCAAAUUCUAAGACCUCAGGGUGUCUUUCUGAGUCUCUCAUUUCUUUAGGGAUGUGGAGAGAAGAUGAAGUAUAGCCGUGUGUAGUGUCGCCAUGGAAUUCUCGGGUGCCAA: 0.257
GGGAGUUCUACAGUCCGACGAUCGUGAGCAAGUCCCCCAAGCCCUGACCAGCCUCCUCCCAUGACUGGUGACUGUUUAACAAGCUGUGCAUCCCCCACAAAAAUAGGAGUGCCCUAUUUGUAGUCUCCACCUCUGGAAUUCUCGGGUGCCAA: 0.411
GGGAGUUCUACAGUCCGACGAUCUUAAUAUUUCCUCCUGUGUCCUCUGAAUGUCUGGGCGAGCUUUUGGUGAGAGGGCUGGUAUGUCAUGUUGUUAUGAUACAGUCGAAAUUUGUCAAUGCAGUGUGAAUGUUUGGAAUUCUCGGGUGCCAA: 1.62
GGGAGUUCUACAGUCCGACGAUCUAAACAGAAAUGCCAAAUUAUUGAUAGUCAUCGUUGCUGCUUCACAUUAGUAUGAGACUGAUGCAGAAGGAAGCCCAUUCUUCGUGUUCAGUGCUGGGGAUGGGGUGGGGUGGAAUUCUCGGGUGCCAA: 0.355

Single results of other studies
CCN(CC)C(=O)c1ccc(Nc2nc(OCC3CCCCC3)c3[nH]cnc3n2)cc1  remaining activity (Inhibitor of nuclear factor kappa-B kinase subunit epsilon (IKBKE, Homo sapiens, UniProt Q14164); enzyme activity, inhibitor; 0.5 µM; reference: control): 77.9%

Some of these lines once more (series 3):
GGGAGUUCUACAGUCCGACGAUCCUGGUGAUUCUCCAUGCCUGUCCUUACCCCGGAUCUGGCUAUUCCCGUGAUGCCAUUUGGAGGGGAGAGGUCUGCUUCCCACUGUGACCAGGCUAUGGGAUCCUUGGCCAUGGAAUUCUCGGGUGCCAA: 0.834
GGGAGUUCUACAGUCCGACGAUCGCGUCCCCUUCCUCGGGUGAGCCUGGCCUGUCCCGUUCAGCCGUUGGGCCCAGGCUUCCUCCCCUCCAAGGUGAAACACUGCAGUCCCGGUGUGGUGGCUCCCCAUGCAGUGGAAUUCUCGGGUGCCAA: 0.328
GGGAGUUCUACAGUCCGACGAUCUUAGCAGACUCUUUGUGGACGAGUGAAUUUCACAAACAGCACAAUUUCAGAAGAAAUCGAGGGCACAGGCCCUCACUUUUCUUCUUUUGACGCAUCAUCCUGUGAUGUUGUGGAAUUCUCGGGUGCCAA: 0.547
